Results from different studies.
A part holds a random share of what one study measured. Changes are numbered by the printed parent chain.

Study 1 — observed: ligand displacement; tested at: 10 µM
Target: D(3) dopamine receptor (DRD3, Homo sapiens, UniProt P35462)
Chain of UniProt P35462 (whole entry, looked up): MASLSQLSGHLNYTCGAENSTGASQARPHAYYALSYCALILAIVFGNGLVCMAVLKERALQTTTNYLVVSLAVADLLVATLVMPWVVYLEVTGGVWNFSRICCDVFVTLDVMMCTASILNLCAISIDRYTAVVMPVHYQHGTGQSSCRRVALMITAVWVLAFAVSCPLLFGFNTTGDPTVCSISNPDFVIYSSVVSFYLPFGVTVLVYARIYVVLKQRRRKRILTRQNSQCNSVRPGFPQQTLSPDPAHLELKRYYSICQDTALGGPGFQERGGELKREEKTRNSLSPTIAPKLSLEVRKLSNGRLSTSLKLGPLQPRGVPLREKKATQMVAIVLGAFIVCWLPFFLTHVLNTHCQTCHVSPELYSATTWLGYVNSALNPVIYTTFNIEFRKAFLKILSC
`COc1cc(-c2cn(C3CCc4c(F)cccc4N(CC(F)(F)F)C3=O)nn2)ccc1-n1cnc(C)c1` (stereo not shown) has an inhibition of 3.33%.
`CN(C)c1ncnc(-c2ccc3nc(Nc4cc(CN5CCN(C(=O)CC(F)(F)F)CC5)ccn4)[nH]c3c2)c1Cl` has an inhibition of 30.1%.
`Cc1cc(Nc2nccc(C)n2)cc(-c2cnc([C@@]3(O)CC[C@H](C(=O)O)C(C)(C)C3)s2)c1` has an inhibition of -5.53%.
With `CO[C@H]1CC[C@H](CNc2ccc(S(=O)(=O)NC(=O)c3ccc(N4CCN(CC5=C(c6ccc(Cl)cc6)CC(C)(C)CC5)CC4)cc3Oc3cnc4[nH]ccc4c3)cc2[N+](=O)[O-])CC1` the inhibition was -14.1%.
The inhibition of `CN1CCN(c2ccnc(NCCc3ccccc3)n2)CC1` is reported as 22.6%.
`COc1cc(N[C@@H]2CCCC[C@]2(O)C(F)(F)F)ccc1F` gave an inhibition of -0.75%.
For `CN1CCN(c2cnc3c(C4CCN(C(=O)c5ccc(OC(F)(F)F)cc5N)CC4)ncnc3c2)CC1`, the inhibition was 7.59%.
`C[C@@H](c1cccc(C#N)c1)n1cc(Cl)cc(C(N)=O)c1=N` has an inhibition of -3.38%.
`COCCOc1nc(-c2ccc(Cl)nc2)nc2c1CN(C(=O)c1ncn3ccccc13)CC2` gave an inhibition of -6.15%.
For `CS(=O)(=O)N1CCCC(NC(=O)[C@H](CCC2CCCCC2)NC(=O)c2ccc(CNC(=O)c3cnc4ccccn34)cc2)C1` (stereo partly shown), the inhibition was 2.38%.
For `CCOc1ccc(S(=O)(=O)Nc2ccc(Cl)cc2C#Cc2cnc(C(=O)O)cc2OC)c2ncccc12`, the inhibition was -30.5%.
`CC(=O)Nc1ncc(CN2CCC[C@H](Cc3cc(C)nc(C)c3)C2)s1` has an inhibition of 10.3%.
`COc1cccc(NC(=O)c2nc3scc(CN(C)Cc4ccccc4)c3c(=O)[nH]2)c1` gave an inhibition of 20.1%.

Study 2 — method: RNA Bind-n-Seq; form: RNA; medium: in vitro; tested at: 20 nM; notes: 6-mer, flanks averaged, single round; added: 150 mM KCl; reference: input library; reading: higher = stronger binding
Target: TAR DNA-binding protein 43, full length, His tag (TARDBP, Homo sapiens, UniProt Q13148, residues 1-414)
`CCUAGU`: “6-mer enrichment (R)” 0.632.
Under “6-mer enrichment (R)”, `UGCUGC` is recorded as 0.809.
`UAAUAC`: “6-mer enrichment (R)” 0.65.
`AAUAUU` — result for “6-mer enrichment (R)”: 0.658.
For `AUUCCG`, “6-mer enrichment (R)” read 0.609.
`UGUGUU`: “6-mer enrichment (R)” 1.06.
For `AGAAUA`, “6-mer enrichment (R)” read 0.77.
`CUCUUA` — result for “6-mer enrichment (R)”: 0.556.

Study 3 — target: CCNA2, cyclin fold, Cln2 fusion (human); method: yeast growth competition, sequencing; medium: yeast; notes: strong parent motif; reference: not given; reading: higher = stronger binding
Starting sequence: WEE1 docking peptide (human); HKTFRKLRLFDTP
For `HKNFRKLRLFDTP [T3N]`, “normalised enrichment score” read 0.936.
`HKTFRKLRLFDTM [P13M]`: “normalised enrichment score” 2.68.
`HKTFRKLGLFDTP [R8G]`: “normalised enrichment score” 0.507.
Under “normalised enrichment score”, `HKMFRKLRLFDTP [T3M]` is recorded as 1.5.
`HKTFRKERLFDTP [L7E]`: “normalised enrichment score” 1.24.
Under “normalised enrichment score”, `HKTFRKLYLFDTP [R8Y]` is recorded as 3.49.
Under “normalised enrichment score”, `HKTFRKFRLFDTP [L7F]` is recorded as 0.803.
`HKTFRKLRLFDWP [T12W]`: “normalised enrichment score” 1.72.

Study 4 — observed: enzyme activity; mode: inhibitor; tested at: 0.5 µM; reference: control
Target: Cyclin-dependent kinase 4, with cyclin D1 (CDK4, Homo sapiens, UniProt P11802)
Chain of UniProt P11802 (whole entry, looked up): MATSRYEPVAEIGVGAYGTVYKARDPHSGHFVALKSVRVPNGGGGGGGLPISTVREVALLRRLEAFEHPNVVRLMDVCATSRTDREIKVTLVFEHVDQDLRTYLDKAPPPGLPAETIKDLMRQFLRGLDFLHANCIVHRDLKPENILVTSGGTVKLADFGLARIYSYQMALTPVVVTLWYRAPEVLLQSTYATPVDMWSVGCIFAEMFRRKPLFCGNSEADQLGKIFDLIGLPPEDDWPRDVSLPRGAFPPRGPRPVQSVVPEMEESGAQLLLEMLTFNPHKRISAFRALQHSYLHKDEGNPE
The remaining activity of `CN([C@@H](Cc1ccc(OS(=O)(=O)c2cccc3cnccc23)cc1)C(=O)N1CCN(c2ccccc2)CC1)S(=O)(=O)c1cccc2cnccc12` is reported as 95.3%.
`c1ccc(-c2cnc(Nc3ccc(OCCN4CCCC4)cc3)s2)cc1` gave a remaining activity of 61.2%.
`O=c1cc(-c2cccc3c2Sc2ccccc2S3)oc(N2CCOCC2)c1` gave a remaining activity of 112%.
`CCOc1nc(NC(=O)Cc2cc(OC)ccc2OC)cc(N)c1C#N` has a remaining activity of 97.6%.
`Cn1nc2c3c(cccc31)C(=O)c1ccccc1-2` gave a remaining activity of 98.9%.
With `COc1cc2ncnc(Nc3ccc(O)c(Br)c3)c2cc1OC` the remaining activity was 101%.
The remaining activity of `Cc1cn(-c2cc(NC(=O)c3ccc(C)c(Nc4nccc(-c5cccnc5)n4)c3)cc(C(F)(F)F)c2)cn1` is reported as 97%.
`O=C1C(Cl)=C(N2C(=O)CCC2=O)C(=O)c2ccccc21` gave a remaining activity of 103%.
The remaining activity of `c1ccc(-c2[nH]ncc2-c2ccnc3ccccc23)nc1` is reported as 101%.
With `Nc1cccc(-c2cc3c(Oc4cccc(O)c4)ncnc3[nH]2)c1` the remaining activity was 88.7%.
For `CCN(CC)CCNC(=O)c1c(C)[nH]c(/C=C2\C(=O)Nc3ccc(Cl)cc32)c1C`, the remaining activity was 74.1%.
With `O=C1c2ccccc2-c2n[nH]c3cccc1c23` the remaining activity was 96.3%.
`Cc1cc2ncc(-c3ccccc3)nc2cc1C` gave a remaining activity of 101%.
`COc1cc2ncnc(Nc3cccc(Cl)c3)c2cc1OC` gave a remaining activity of 103%.
